Measured values pooled from the literature.
Parts stem from different laboratories: compare values within a part only. Changes are numbered by the printed parent chain.

Set 1 — target: CRIPT, C-terminal peptide; method: DHFR complementation, deep sequencing; sample: yeast; baseline: wild type; reading: higher = weaker binding; endpoint: binding free energy change
Notes: single substitutions, model-inferred values
Parent: ERBIN, PDZ domain 1 (human); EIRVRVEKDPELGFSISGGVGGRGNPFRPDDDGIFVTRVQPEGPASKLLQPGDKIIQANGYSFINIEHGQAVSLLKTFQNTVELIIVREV; partner TKNYKQTSV
A71Q: 0.496 kcal/mol
T77F: 0.233 kcal/mol
R28C: 0.0489 kcal/mol
P51L: 0.333 kcal/mol
I64A: 0.00327 kcal/mol
Q57M: 0.0109 kcal/mol
V4G: 0.921 kcal/mol
G21C: 0.355 kcal/mol

Set 2 — target: CREBZF, bZIP domain (human); method: DHFR protein complementation; sample: yeast; baseline: wild-type JUN-FOS pair; reading: higher = stronger binding; endpoint: binding fitness
Notes: single substitutions, most at no-binding floor
Parent: JUN, bZIP domain (human); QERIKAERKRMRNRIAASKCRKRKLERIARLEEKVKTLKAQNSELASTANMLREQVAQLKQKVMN; partner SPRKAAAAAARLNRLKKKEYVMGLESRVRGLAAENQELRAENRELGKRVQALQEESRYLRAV
K36H: -1.52 natural log
V56T: -1.51 natural log
L31S: -1.46 natural log
Q41E: -1.45 natural log
E32M: -1.53 natural log
V35N: -1.02 natural log
Q41V: -1.46 natural log
E33D: -1.59 natural log

Set 3 — method: RNAcompete; form: RNA; sample: in vitro; tested at: 20 nM; notes: 7-mer, probes averaged, single round; baseline: mean of 7-mers; reading: higher = stronger binding; endpoint: 7-mer Z-score
Target: PABPC1L2, full length, GST fusion (mouse, UniProt A0ABA7IW68)
Residues (chain): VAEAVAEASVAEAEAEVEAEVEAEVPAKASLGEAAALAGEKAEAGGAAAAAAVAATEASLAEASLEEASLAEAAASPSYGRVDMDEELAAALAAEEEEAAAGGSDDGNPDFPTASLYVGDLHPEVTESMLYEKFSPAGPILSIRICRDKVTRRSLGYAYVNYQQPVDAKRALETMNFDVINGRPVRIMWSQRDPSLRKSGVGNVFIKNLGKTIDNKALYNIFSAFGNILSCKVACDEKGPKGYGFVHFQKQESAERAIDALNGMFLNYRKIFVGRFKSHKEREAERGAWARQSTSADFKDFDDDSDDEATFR
GUCCAUA: -0.161
GCGAGAA: 0.135
CGCCGGU: -0.402
AACAGCA: 0.615
AAAUGGU: 0.838
CUGCCAA: -0.128
GAGACAA: 0.457
AGAGAGU: -0.249

Further values, each from its own experiment
Parent: viral docking peptide; KKAKRRLFTISDS; partner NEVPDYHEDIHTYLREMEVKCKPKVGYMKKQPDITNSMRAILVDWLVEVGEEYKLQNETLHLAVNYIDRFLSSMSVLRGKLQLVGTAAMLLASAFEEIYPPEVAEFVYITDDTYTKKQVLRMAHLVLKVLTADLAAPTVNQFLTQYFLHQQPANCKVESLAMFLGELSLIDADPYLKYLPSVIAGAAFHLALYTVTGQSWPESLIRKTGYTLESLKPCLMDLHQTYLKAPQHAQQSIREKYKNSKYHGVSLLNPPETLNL
KKAARRLFTISDS [K4A] — normalised enrichment score (CCNA2, cyclin fold, Cln2 fusion (human); yeast growth competition, sequencing; yeast; strong parent motif; baseline: not given, higher = stronger binding): 3.27

For quick reference, copied from above (set 3):
AACAGCA: 0.615
AAAUGGU: 0.838
